Results of several laboratories.
Each numbered part is a random draw from the data of one study; scales do not carry over between parts. Changes are numbered by the printed parent chain.

Set 1
Target: Prothrombin, mature alpha-thrombin (F2, Homo sapiens, UniProt P00734)
Method: aptamer microarray, sandwich
Form: DNA with 2'F-ANA
Matrix: in vitro
Concentration: 200 nM
Notes: whole 15-mer aptamer, many near background
With: Cy3 exosite-II aptamer, 400 nM
Reading: higher = stronger binding
Strand: GGTTGGTGTGGTTGG
Modification	mean fluorescence intensity [a.u.]
2'F-ANA at 5 11 12 14	48.3
2'F-ANA at 1 7 9 10 11 13 14 15	50
2'F-ANA at 1 3 5 7 9 10 12 13 15	47.2
2'F-ANA at 2 7 9 10 11 14	83.8
2'F-ANA at 1 5 7 10 12 13 15	56.6
2'F-ANA at 2 3 6 7 9 10 11 14	234

Set 2
Target: CCNB1, cyclin fold, Cln2 fusion (human)
Method: yeast growth competition, sequencing
Matrix: yeast
Notes: weak parent motif
Baseline: not given
Reading: higher = stronger binding
Starting sequence: RB1 docking peptide (human); PKPLKKLRFDIEG
Change	normalised enrichment score
E12T	0.892
K6L	0.136
I11Q	-0.949
L7M	0.695
G13T	0.0364

Set 3
Target: Ras GTPase-activating protein-binding protein 1, C-terminal RGG region (G3BP1, Homo sapiens, UniProt Q13283)
UniProt Q13283, sequence (whole entry, looked up): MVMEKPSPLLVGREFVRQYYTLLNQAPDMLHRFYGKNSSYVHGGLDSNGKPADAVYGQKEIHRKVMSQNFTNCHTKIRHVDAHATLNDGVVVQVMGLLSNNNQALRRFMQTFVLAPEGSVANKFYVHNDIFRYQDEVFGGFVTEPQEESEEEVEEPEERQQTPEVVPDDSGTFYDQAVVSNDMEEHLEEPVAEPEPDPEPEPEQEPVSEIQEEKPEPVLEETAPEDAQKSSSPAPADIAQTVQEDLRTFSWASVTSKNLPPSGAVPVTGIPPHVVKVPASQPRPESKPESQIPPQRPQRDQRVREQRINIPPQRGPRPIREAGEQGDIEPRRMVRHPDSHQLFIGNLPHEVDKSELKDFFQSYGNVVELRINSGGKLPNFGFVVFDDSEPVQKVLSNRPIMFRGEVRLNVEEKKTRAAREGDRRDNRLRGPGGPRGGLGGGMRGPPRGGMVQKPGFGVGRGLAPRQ
Method: RNA Bind-n-Seq
Form: RNA
Matrix: in vitro
Concentration: 1 µM
Notes: whole 134-nt RNA, ends assumed
With: 150 mM KCl
Baseline: input library
Reading: higher = stronger binding
Constant ends, left off below: GGGAGUUCUACAGUCCGACGAUC … UGGAAUUCUCGGGUGUCAAGG
Strand	log2 enrichment
CCUCAAGUCCUGUGCUACACAUCGUAUGUACCGAAUCGGGUGGGUGGGAGGGAAAGUAUUAUGUUACGCCGUUCGGAUCUGCACUUCCAG	1.16
AAGUCCUGUGCUACACAUCGUAUGUACCGAAUCGGGGUUUGGGGUUUGGUUUGGGGAAAGUAUUAUGUUACGCCGUUCGGAUCUGCACUU	-0.608
UCCUGUGCUACACAUCGUAUGUACCGAAUCGGGGAAAAAAGGAAAAAAGGAAAAAAGGGAAAGUAUUAUGUUACGCCGUUCGGAUCUGCA	-1.24
CAAGUCCUGUGCUACACAUCGUAUGUACCGAAUCGGAGGUUUUUGGAAAAAAAGGAAAGUAUUAUGUUACGCCGUUCGGAUCUGCACUUC	-1.62
AGUCCUGUGCUACACAUCGUAUGUACCGAAUCGGAAAAAGGUUUUUUUGGAAAAAGGAAAGUAUUAUGUUACGCCGUUCGGAUCUGCACU	-2.62

Mixed results
Molecule	target	assay	test system	conditions	how to read	endpoint	result
PhoQ, residues 284 288 289 292 302 303 AQGLTV	PhoP, residues 12 14 15 18 19 AWHSL (Escherichia coli, UniProt P23836)	Sort-seq, measured: YFP reporter	E. coli	PhoQ-PhoP variant library, with: 10 µM Mg2+	baseline: high Mg2+ state, higher = stronger signaling	fold induction	1.4
